Published values gathered from unrelated publications.
± gives the spread as reported.

| SMILES | organism | test | system | setting | how to read | quantity | value |
| --- | --- | --- | --- | --- | --- | --- | --- |
| c1ccc(COCc2nc3ccccc3[nH]2)cc1 | Artemia salina |  |  | 24 h |  | LC50 | 16.7 µg/mL |
| O=C(O)c1cc[c]([Hg][Cl])cc1 | Trypanosoma brucei | viability, flow cytometry | bloodstream form | 24 h |  | EC50 | 2.1 ± 0.2 µM |
| CC[C@]1(O)C[C@H]2CN(CCc3c([nH]c4ccccc34)[C@@](C(=O)OC)(c3cc4c(cc3OC)N(C=O)[C@H]3[C@@](O)(C(=O)OC)[C@H](OC(C)=O)[C@]5(CC)C=CCN6CC[C@]43[C@@H]65)C2)C1 | Artemia salina |  |  | 24 h |  | LC50 | 1.28 µg/mL |
| CC(C)(c1ccc(O)cc1)c1ccc(O)cc1 | Daphnia magna |  | neonates under 24 h | 48 h |  | LC50 | 66.5 µM |
| CCCCCCCCCCCCN(C)C | Oncorhynchus mykiss | liver S9 substrate depletion | pooled rainbow trout liver S9 | pH 7.8, tested individually |  | intrinsic clearance in vitro | 1.9 mL/h/mg S9 protein |
| CCCC(CCC)C(=O)Nc1ccccc1O | Artemia franciscana |  | larvae, artificial seawater | 0.10 mM, 24 h, 0.17% DMSO | relative to: DMSO control | mortality | 2.38 ± 2.38% |
| C/C(=N\C#N)N(C)Cc1ccc(Cl)nc1 | Folsomia candida | reproduction, OECD 232 | LUFA 2.2 soil | 28 days |  | EC10 | 0.05 mg/kg dry soil |
| CNC(=O)c1cc(Cl)cc(C)c1NC(=O)c1cc(Br)nn1-c1ncccc1Cl | Apis mellifera | acute contact toxicity | female worker bees | topical, 2 µg/bee, 48 h, added: propiconazole 10 µg/bee 1 h before |  | mortality | 100% |
| CCCCCCCCCN(C)C | Oncorhynchus mykiss | liver S9 substrate depletion | rainbow trout liver S9 | tested individually |  | intrinsic clearance in vivo | 326 mL/h/g liver |
| CCOP(=S)(OCC)Oc1ccc([N+](=O)[O-])cc1 | Daphnia magna |  | neonates under 24 h old | 48 h |  | LC50 | 0.012 µM |
| CCCCCCCCCCCCCN(C)C | Oncorhynchus mykiss | liver S9 substrate depletion | rainbow trout liver S9 | tested individually |  | intrinsic clearance in vitro | 1.24 mL/h/mg S9 protein |
| CCOP(=S)(OCC)Oc1nc(Cl)c(Cl)cc1Cl | Daphnia magna |  | neonates under 24 h | 48 h |  | LC50 | 0.00292 µM |
| COc1ccc(Cn2c(-c3ccc(OC)cc3)nc3ccccc32)cc1 | Artemia salina |  |  | 24 h |  | LC50 | 36 µg/mL |
| CCOc1ccc2c(c1)C(C)=CC(C)(C)N2 | Oncorhynchus mykiss |  | well water | 96 h |  | LC50 | 18 µg/mL |
| NC(Cc1cc(O)c(O)cc1O)C(=O)O (racemic) | Trypanosoma brucei | viability, flow cytometry | bloodstream form | 24 h |  | EC50 | > 25 µM |

For quick reference, copied from above:
| SMILES | organism | test | system | setting | how to read | quantity | value |
| --- | --- | --- | --- | --- | --- | --- | --- |
| CNC(=O)c1cc(Cl)cc(C)c1NC(=O)c1cc(Br)nn1-c1ncccc1Cl | Apis mellifera | acute contact toxicity | female worker bees | topical, 2 µg/bee, 48 h, added: propiconazole 10 µg/bee 1 h before |  | mortality | 100% |
| CCCCCCCCCN(C)C | Oncorhynchus mykiss | liver S9 substrate depletion | rainbow trout liver S9 | tested individually |  | intrinsic clearance in vivo | 326 mL/h/g liver |
